Published values gathered from unrelated publications.
Numbers after ± are the reported error.
rep main protease: Replicase polyprotein 1ab, main protease (rep, Severe acute respiratory syndrome coronavirus 2, UniProt P0DTD1)
Spike glycoprotein: Spike glycoprotein (Severe acute respiratory syndrome coronavirus 2, UniProt P0DTC2)

Cc1nc(N)cc(OC2CCN(C(=O)c3ccc(S(=O)(=O)F)cc3)CC2)n1
kinact (cya (Bacillus anthracis, UniProt P40136)): 0.00187 s⁻¹

O=C1CC[C@@H](CCC(=O)N2CCCC[C@@H](C3CN(C(=O)c4cnc5n[nH]nc5c4)C3)C2)CN1
inhibition (rep main protease; enzyme activity, inhibitor; 5 µM, run 1): 16.5%

O=C(N[C@@H](Cc1ccccc1)C(=O)O)OCc1ccccc1
inhibition (rep main protease; reporter gene (mKate2), inhibitor; 20 µM): -0.577%

CCCCN(C)CCCNC(=O)c1ccc2nc(N3CCCCC3)sc2c1
efficacy (SARS-CoV-2; cytopathic effect; USA_WA1/2020; round 2, 5-point): 69.9%

COc1cc(O)c(CC=C(C)C)c2c1C(=O)CC(c1ccc(O)cc1)O2 (stereo not shown)
koff (Spike glycoprotein; binding, BLI): 0.019 s⁻¹

CNC(=O)[C@@H](NC(=O)[C@H](CC(C)C)[C@H](O)C(=O)NO)C(C)(C)C
viability difference (C2C12; 10 µM, added: MH venom; reference: venom alone): 13.5%

CC(C)=CCC[C@]1(C)C=Cc2c(O)c3c(c(CC=C(C)C)c2O1)O[C@]12C(=C[C@@H]4C[C@H]1C(C)(C)O[C@@]2(C/C=C(/C)C(=O)O)C4=O)C3=O
kon (Spike glycoprotein; binding, BLI): 165 M⁻¹ s⁻¹

C[C@]1(C(=O)N[C@@H]2CC[C@H]3C[C@@H]2CN3C(=O)Cc2cncc(O)c2)CCc2ccccc2C1
inhibition (rep main protease; enzyme activity, inhibitor; 5 µM): 12.2%

Nc1ncnc2c([C@@H]3N[C@H](CO)[C@@H](O)[C@H]3O)c[nH]c12
inhibition (Marburg virus; viral replication; HeLa, Musoke; 100 µM): 98%

COCCCNC(=O)C1CCN(Cc2cc3ccccc3n2Cc2cccc(Cl)c2)CC1
efficacy (SARS-CoV-2; cytopathic effect; USA_WA1/2020; retest, 8-point, duplicates): 0%

Cl.Cl.O=C1c2c(O)ccc(O)c2C(=O)c2c(NCCNCCO)ccc(NCCNCCO)c21
Hill slope (Replicase polyprotein 1ab, nsp14 N7-methyltransferase (rep, Severe acute respiratory syndrome coronavirus 2, UniProt P0DTD1); N7-methyltransferase activity, inhibitor, Py-FLINT): 1.09 ± 0.04

O.O=C1NC(=O)C(=O)C(=O)N1
inhibition (rep main protease; reporter gene (Gaussia luciferase), inhibitor; 20 µM): 1.44%

Cc1ccc2[nH]ncc2c1C(=O)NC[C@H]1Cc2ccccc2CN1C(=O)C[C@H](C)c1ccco1
inhibition (rep main protease; enzyme activity, inhibitor; 5 µM, mean of runs): 11.3%

CCCCCCCCCC(C)CCC(C)C(=O)OCc1ccccc1 (stereo not shown)
activity (Spike glycoprotein, RBD (Severe acute respiratory syndrome coronavirus 2, UniProt P0DTC2); binding; concentration not given): inactive

O=C(/C=C\c1cnc[nH]c1=O)NC[C@H](NC(=O)C1=NNC(=O)CC1)c1ccc2ccccc2c1
inhibition (rep main protease; enzyme activity, inhibitor; 5 µM): 16%

Cc1c(-c2ccnn2C)cc(C(=O)NCc2ccc(S(C)(=O)=O)cn2)c(=O)n1-c1cccc(C(F)(F)F)c1
inhibition (rep main protease; reporter gene (mKate2), inhibitor; 20 µM): -0.373%

Cn1cnc(Cn2c(=O)[nH]/c(=N\c3cc4cn(C)nc4cc3Cl)n(Cc3cc(F)c(F)cc3F)c2=O)n1
patients with adverse event (human, mild renal impairment; oral, 375 mg, vessel puncture site haemorrhage TEAE, Mild severity): 12.5%

CC[C@H](C)[C@H](NC(=O)[C@H](CC(C)C)NC(=O)[C@H](Cc1c[nH]c2ccccc12)NC(=O)[C@H](CCC(N)=O)NC(=O)[C@@H](NC(=O)[C@H](Cc1ccccc1)NC(=O)[C@H](C)NC(=O)[C@H](CCCCNC(=O)COCCOCCNC(=O)COCCOCCNC(=O)CC[C@H](NC(=O)CCCCCCCCCCCCCCCCCCC(=O)O)C(=O)O)NC(=O)[C@H](CCC(N)=O)NC(=O)[C@H](C)NC(=O)[C@@H](NC(=O)[C@H](CCCCN)NC(=O)[C@H](CC(=O)O)NC(=O)[C@H](CC(C)C)NC(=O)C(C)(C)NC(=O)[C@@H](NC(=O)[C@H](CO)NC(=O)[C@H](Cc1ccc(O)cc1)NC(=O)[C@H](CC(=O)O)NC(=O)[C@H](CO)NC(=O)[C@@H](NC(=O)[C@H](Cc1ccccc1)NC(=O)[C@@H](NC(=O)CNC(=O)[C@H](CCC(=O)O)NC(=O)C(C)(C)NC(=O)[C@@H](N)Cc1ccc(O)cc1)[C@@H](C)O)[C@@H](C)O)[C@@H](C)CC)[C@@H](C)CC)C(C)C)C(=O)N[C@@H](C)C(=O)NCC(=O)NCC(=O)N1CCC[C@H]1C(=O)N[C@@H](CO)C(=O)N[C@@H](CO)C(=O)NCC(=O)N[C@@H](C)C(=O)N1CCC[C@H]1C(=O)N1CCC[C@H]1C(=O)N1CCC[C@H]1C(=O)N[C@@H](CO)C(N)=O
subjects ADA-positive at baseline (measured: anti-drug antibodies; patients with type 2 diabetes; 5/5/10/10 mg escalating, baseline, evaluable subjects): 8.3%

COc1oc(=O)c2cc(N)ccc2c1Cl
inhibition (rep main protease; viral replication, Gluc reporter; SARS-CoV-2; 20 µM): 0.809%
